Experimental data gathered from unrelated publications.
Compare with care: the assays were run in different laboratories.
Cell line: BT-20

| Structure (SMILES) | test | setting | measurement | value |
| --- | --- | --- | --- | --- |
| Cc1cc([C@H](C(=O)N2C[C@H](O)C[C@H]2C(=O)N[C@@H](CC(=O)N2CCC(N3CCC(C#Cc4ccc(C(=O)N[C@H]5C(C)(C)[C@H](Oc6ccc(C#N)c(Cl)c6)C5(C)C)cc4)CC3)CC2)c2ccc(-c3scnc3C)cc2)C(C)C)on1 | cell growth or viability | 7 days | IC50 | > 10 µM |
| CNS(=O)(=O)Nc1nccc(Cc2c(C)c3ccc(Oc4ncccc4F)cc3oc2=O)c1F | cell viability | 7 days | IC50 | > 1 µM |
| COC(=O)N1c2ccc3c(nc(Cc4ccccc4)n3[C@@H]3CCC[C@@H](C(=O)O)C3)c2CC[C@@H]1C | cell growth or viability, ATP luminescence | 10 days | IC50 | 9.66 µM |
| CC1(C)[C@H](NC(=O)c2cnn(CCO)c2)C(C)(C)[C@H]1Oc1ccc(C#N)c(Cl)c1 | cell growth or viability | 7 days | IC50 | > 10 µM |
| CC(C)c1ccc(N(C)c2ccc3c(c2)OCC[C@H]3CNc2cnccc2C(=O)O)cc1 | cell growth or viability, ATP luminescence | 7 days | IC50 | ≥ 10 µM |
| CC(C)=CC1OC(C)(C)C2C=C3C(=O)C(Cl)=CC(O)C3C3C(O)C4OC4C(=O)C132 (centres unmarked) | cell growth or viability, MTS | – | IC50 | 9.14 µM |
| Cc1cc(C)nc(NC(=S)N2CCN(c3ccncc3)CC2)c1 | cell viability, CellTiter-Glo | 4 days | EC50 | > 100 µM |
| CCN(C(=O)c1cc(F)ccc1Oc1nncnc1N1CCC2(C1)CN([C@H](CCCN(C)CCOC)C(C)C)C2)C(C)C | cell growth or viability | 7 days | GI50 | > 10 µM |

A few entries again:
| Structure (SMILES) | test | setting | measurement | value |
| --- | --- | --- | --- | --- |
| CC(C)=CC1OC(C)(C)C2C=C3C(=O)C(Cl)=CC(O)C3C3C(O)C4OC4C(=O)C132 (centres unmarked) | cell growth or viability, MTS | – | IC50 | 9.14 µM |
